Published values gathered from unrelated publications.
“And” joins repeats or separate records; there may be more than shown.

O=C(O)CNC(=O)Cc1ccccc1 — sarcomere length (ventricular cardiomyocytes, C57BL/6 mouse; dose not given, 0.056 s): 1.72 µm
CCn1c(=O)c(-c2cc[nH]n2)cc2c(C)nc(N)nc21 — gliosis score (enterovirus A71; suckling mouse, EV71-infected, brain; 0.25 mg/kg; direction not given): 0
CC1(C)S[C@@H]2[C@H](NC(=O)[C@H](N)c3ccccc3)C(=O)N2[C@H]1C(=O)O — DNA perimeter (Bacillus subtilis; bacterial cytological profiling; ATCC 6633): 5.98 µm and 6.49 µm and 5.8 µm
COc1cc(O)c(CC=C(C)C)c(O)c1C(=O)/C=C/c1ccc(O)cc1 — fasting plasma glucose (male Tac:SW germ-free mice, high-fat diet; in diet, 60 mg/kg/day, 10 weeks): 134 mg/dL
CC(C)n1ncc2c(C(=O)NCC3(C)CNC3)cc(C3CC3)nc21 — plaque area (enterovirus A71; Tainan/4643/1998; 0.001 µM): 95% and 105%
O=C(O)c1cn(C2CC2)c2cc(N3CCNCC3)c(F)cc2c1=O — DNA width (Bacillus subtilis; bacterial cytological profiling; ATCC 6633): 0.59 µm and 0.61 µm and 0.65 µm
N#Cc1ccc2c(-c3ccncc3)c(-c3ccc(F)cc3)nn2c1 — log2 fold change (kinase binding, competitor, MIB/MS competition, refers to: RTK1; Candida albicans cell lysate; 100 nM; reference: DMSO): -0.262
Cn1cc(-c2ccc(-c3cncc(Cl)c3N3CCC4(CCNC4=O)CC3)cc2)cn1 — fold change in expression (COLO 205; microarray, refers to: C1orf61; concentration not given, 6 h, gene set CROC-4; reference: untreated cells): -2.7
N#Cc1ccc2c(c1)[C@H]1CCCN(C(=O)c3ccc4[nH]cnc4c3)[C@H]1C2 — plasma level (refers to: cortisol; human, Phase II trial; oral, 20 mg once daily, last treatment, HPA axis, mean): 315 nmol/L
Cc1cc(C)c(CNC(=O)c2cc(Cl)c3c(c2C)O[C@@](C)([C@H]2CC[C@H](N(C)C)CC2)O3)c(=O)[nH]1 — best response not assessed (IWG criteria; relapsed/refractory PTCL-NOS patients; dose not given): 8%
c1coc(-c2n[nH]cc2-c2ccnc3ccccc23)c1 — log2 fold change (CKA1 (Candida albicans); kinase binding, MIB/MS competition; Candida albicans lysate; 1 µM; reference: DMSO): -0.3
CO[C@H]1/C=C/O[C@@]2(C)Oc3c(C)c(O)c4c(O)c(c(/C=N/N5CCN(C)CC5)c(O)c4c3C2=O)NC(=O)/C(C)=C\C=C\[C@H](C)[C@H](O)[C@@H](C)[C@@H](O)[C@@H](C)[C@H](OC(C)=O)[C@@H]1C — DNA perimeter (Bacillus subtilis; bacterial cytological profiling; ATCC 6633): 4.91 µm and 4.8 µm and 4.52 µm
CC1(C)S[C@@H]2[C@H](NC(=O)[C@H](N)c3ccccc3)C(=O)N2[C@H]1C(=O)O — MIC (Stenotrophomonas maltophilia; broth microdilution; clinical isolate RKI-No 729/15): > 16 µg/mL
Oc1ccccc1-c1n[nH]cc1-c1ccnc2ccccc12 — log2 fold change (CKA1 (Candida albicans); kinase binding, MIB/MS competition; Candida albicans lysate; 10 µM; reference: DMSO): 0.42
NC(=O)c1cnc2[nH]ccc2c1N[C@@H]1[C@@H]2CC3C[C@H]1C[C@@](O)(C3)C2 — percent change (CD8+ effector memory T cells, flow cytometry; Japanese humans, peripheral blood; 20 mg single dose; reference: baseline): 0.03%
CN(C)[C@@H]1C(O)=C(C(N)=O)C(=O)[C@@]2(O)C(O)=C3C(=O)c4c(O)cccc4[C@@](C)(O)[C@H]3C[C@@H]12 — DNA perimeter (Bacillus subtilis; bacterial cytological profiling; ATCC 6633): 4.88 µm and 4.65 µm and 4.69 µm

Excerpt of the above:
CC1(C)S[C@@H]2[C@H](NC(=O)[C@H](N)c3ccccc3)C(=O)N2[C@H]1C(=O)O — DNA perimeter (Bacillus subtilis; bacterial cytological profiling; ATCC 6633): 5.98 µm and 6.49 µm and 5.8 µm
Oc1ccccc1-c1n[nH]cc1-c1ccnc2ccccc12 — log2 fold change (CKA1 (Candida albicans); kinase binding, MIB/MS competition; Candida albicans lysate; 10 µM; reference: DMSO): 0.42
